Experimental data from different studies.
Compare with care: the assays were run in different laboratories. Numbers after ± are the reported error.

`O=C(Nc1ccc2c(c1)CN(c1ccc(F)c(F)c1)C2=O)N1CCN(c2ccc(Cl)cc2)CC1` has an IC50 of greater than 64 µM (primary peritoneal mouse macrophages; cytotoxicity; 5% fetal calf serum).
`COc1cc(O)c(-c2ccc(OC)c3c(OC)cc(C)cc23)c2c1[C@H](C)N(C)[C@H](C)C2` gave an IC50 of 49.9 µM (L6; cytotoxicity).
`Cc1ccc(N2Cc3cc(NC(=O)N4CCN(c5ccc(F)cc5)CC4)ccc3C2=O)cc1` gave an IC50 of 32 µM (primary peritoneal mouse macrophages; cytotoxicity; 5% fetal calf serum).
With `CCSc1ncc(-c2cc(-c3ccc4c(c3)OCO4)[nH]c(=O)c2C#N)n1Cc1ccccc1` the IC50 was 393 µM (HT-29; cell growth or viability, MTT; 24 h).
`O=C(Nc1ccc2c(c1)CN(c1ccccc1)C2=O)N1CC[C@H](F)C1` gave an IC50 of greater than 64 µM (primary peritoneal mouse macrophages; cytotoxicity; 5% fetal calf serum).
`CCCCn1cc(C(=O)O)c(=O)c2cc(F)c(N)c([N+](=O)[O-])c21` gave an IC50 of 190 ± 8.7 µg/mL (HT-29; cell growth, SRB; 72 h).
For `CC(=O)[O-].Nc1ccc(C([O-])=NN=Cc2ccc(OCC(=O)Nc3ccc(Cl)cc3)cc2)cc1.[Cu+2]`, the IC50 was 31.4 ± 2.6 µM (HeLa; cytotoxicity, MTT; 24 h).
For `CSc1ncc(-c2cc(-c3ccc(Br)cc3)[nH]c(=N)c2C#N)n1Cc1ccccc1`, the IC50 was greater than 130 µM (HT-29; cell growth or viability, MTT; 24 h).
For `Cc1cc(=O)c2c(O)c3c(O[C@@H]4O[C@H](CO)[C@@H](O)[C@H](O)[C@H]4O)cc(O)cc3cc2o1`, the IC50 was greater than 500 µM (HK-2 in HepaRG co-culture; cell viability, MTT; 24 h).
For `CC(C)(C)c1ccc(NC(=S)N/N=C/c2ccccc2O)cc1`, the IC50 was 3.76 µg/mL (HUVEC; cell growth or viability, CCK-8; 24 h).
`O=C(Nc1ccc2c(c1)CN(c1ccc(Cl)cc1)C2=O)N1CC[C@H](O)C1` has an IC50 of greater than 64 µM (primary peritoneal mouse macrophages; cytotoxicity; 5% fetal calf serum).
With `CCCCn1cc(C(=O)O)c(=O)c2cc(F)c3[nH]nnc3c21` the IC50 was 268 µM (HT-29; cell growth or viability, SRB).
The IC50 of `Cc1ccc(N2Cc3cc(NC(=O)N4CCN(c5cccc(C(F)(F)F)c5)CC4)ccc3C2=O)cc1` is reported as greater than 64 µM (primary peritoneal mouse macrophages; cytotoxicity; 5% fetal calf serum).
For `CN1CCN(c2ccc(/C=C3\C(=O)Nc4ccc(-c5ccc(-c6ccc(O)cc6)cc5)cc43)cc2)CC1`, the IC50 was greater than 1 µM (NIH3T3; cytotoxicity, WST-1; 48 h, 10% FBS).
With `COC(C)(C)C(O)COc1c2ccoc2cc2oc(=O)ccc12` (stereo not drawn) the IC50 was 47.2 µM (NIH3T3; cell growth or viability, MTT; 24 h).

For quick reference, copied from above:
`O=C(Nc1ccc2c(c1)CN(c1ccccc1)C2=O)N1CC[C@H](F)C1` gave an IC50 of greater than 64 µM (primary peritoneal mouse macrophages; cytotoxicity; 5% fetal calf serum).
`CCCCn1cc(C(=O)O)c(=O)c2cc(F)c(N)c([N+](=O)[O-])c21` gave an IC50 of 190 ± 8.7 µg/mL (HT-29; cell growth, SRB; 72 h).
